Experimental data pooled from the literature.
A part holds a random share of what one study measured. Substitutions count along the parent as printed.

Sample 1
Target: RING finger protein unkempt homolog, zinc fingers 1-6, GST-SBP tag (UNK, Homo sapiens, UniProt Q9C0B0, residues 30-357)
Chain of UniProt Q9C0B0 (30-357, looked up): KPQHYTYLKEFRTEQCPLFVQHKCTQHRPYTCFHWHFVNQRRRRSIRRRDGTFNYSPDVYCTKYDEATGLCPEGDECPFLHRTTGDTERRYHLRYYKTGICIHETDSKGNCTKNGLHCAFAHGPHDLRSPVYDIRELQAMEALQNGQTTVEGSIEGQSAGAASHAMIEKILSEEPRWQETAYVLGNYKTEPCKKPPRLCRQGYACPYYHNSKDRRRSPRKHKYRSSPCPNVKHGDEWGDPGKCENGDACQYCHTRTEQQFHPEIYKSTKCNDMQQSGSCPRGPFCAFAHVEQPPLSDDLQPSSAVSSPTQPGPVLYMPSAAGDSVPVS
Method: RNA Bind-n-Seq
Molecule type: RNA
Medium: in vitro
Concentration: not given
Setting: RNA with constant flanks, ends assumed
Relative to: input RNA pool
Reading: higher = stronger binding
Shared flanks, not repeated: GGGAGUUCUACAGUCCGACGAUC … CAACAGAGGAUUGAGCAUCA
Oligonucleotide | bound/input enrichment [ratio]
GAGACCUUUUCCAGUUAUAUCAGCGUUCAUAAUGAUAGCAAUCAAGUUGUAAAAGACAUAUCCGUAAAAGCUGAUCUUCAGACAAGUUCUCAGCGUUUAAAUCUUUCAGCCUCCAAUGCU | 0.37
UUCCUGACCCGGCCUAAGGUCCCUGUCUUGCAGCUGGAUAGCGGCAACUACCUCUUCUCCACCCGUGCAAUCUGCCGAUAUUUUUUUUUGUUAUCUGGCUGGGAGCAAGAUGACCUCACU | 0.397
CUCCAGGUUCCAGUAAAAUUCUUCUGACCGAAACCAAUGUGGGUGUUAGAAAAAUUACCAUACCGCUUAAUAUGUUUAUUAGUUCUCUUUGGAAAAAAACUACCACUGUGGUCUUAAAAG | 0.352
AAGCCUUAAGCACAAUUAAUUAAAAGUGAAACGUAAUUGUACAAGCAGUUAAUCACCCACCACCGGGCAUGAUUAACAAAGCAACCUUUCCCUUCCCCCGAGUGAUUUUGCGAAACCCCC | 0.314
CAUCGCAUGCCCAGGGGCCACUACCUGGCAUUAUCGCAUGCUGGGAUCAUUGGGGGAGGGCCGUUUGAAAUUCACCACUGUCCUUUGUUUUGGAGAUUCUUAUUUUUUAAUAAGUAAUCC | 0.219
GACAGCAGUAGGGAAAUUAGGUGCAGAAUGUUAAGUUCAACCACGGGGCUUUCACCAGGUCCGGUUGUCAAACUCCCCAACAUUGGCAGCUACUGUUUGGGUGGACCCCACACUUGCCUG | 0.36
GGCAGGCCAGCACCUGGCUCAGUGUCAGUCUAUUUAUCAGAGGUGUAAAUAAUCCACACACCGUUUUUCUCCUUUUAGAUUAUUUUGUAUUUGUUUAAAAAAUAUUUGUCAAAAUACAAA | 2.99

Sample 2
Target: CCNA1, cyclin fold, Cln2 fusion (human)
Method: yeast growth competition, sequencing
Medium: yeast
Setting: weak parent motif
Relative to: not given
Reading: higher = stronger binding
Parent: BRCA2 docking peptide (human); PSIKRNLLNEFDR; partner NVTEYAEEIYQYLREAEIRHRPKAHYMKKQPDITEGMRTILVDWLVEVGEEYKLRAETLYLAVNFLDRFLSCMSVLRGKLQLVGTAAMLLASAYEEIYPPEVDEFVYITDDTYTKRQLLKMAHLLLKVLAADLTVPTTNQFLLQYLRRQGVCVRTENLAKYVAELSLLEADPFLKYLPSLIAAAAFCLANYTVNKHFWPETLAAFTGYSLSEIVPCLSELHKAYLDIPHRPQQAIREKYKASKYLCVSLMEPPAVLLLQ
Variant | normalised enrichment score
PSIKRNLGNEFDR [L8G] | 0.449
PSIKFNLLNEFDR [R5F] | -0.052
PSIKRNLLCEFDR [N9C] | 0.196
PSIKRLLLNEFDR [N6L] | 0.167
PSIKRNLLNGFDR [E10G] | 0.203
PSIKRNVLNEFDR [L7V] | -0.227
PSIKRNLENEFDR [L8E] | 0.391
PSMKRNLLNEFDR [I3M] | 0.228
PSYKRNLLNEFDR [I3Y] | 0.51
WSIKRNLLNEFDR [P1W] | 0.658
PSIKRNLLNEKDR [F11K] | 0.13
PSIKRNLHNEFDR [L8H] | 0.16
PSIKRNLLKEFDR [N9K] | 0.784
HSIKRNLLNEFDR [P1H] | 0.802
FSIKRNLLNEFDR [P1F] | 0.437

Sample 3
Target: Interferon regulatory factor 7, full length, phosphomimetic (IRF7, Homo sapiens, UniProt Q92985, residues 1-503, S471D/S472D/S475D/S476D/S477D/S483D/S484D/S487D)
Method: protein-binding microarray
Molecule type: double-stranded DNA, one strand shown
Medium: in vitro
Concentration: 2200 nM top
Setting: 60-bp whole probe
Added: salmon DNA 0.4 mg/ml
Relative to: random background probes
Reading: higher = stronger binding
Shared flanks, not repeated: GCCTAGCAC … GTCTTGATTCGCTTGACGCTGCTG
Target sequence (chain): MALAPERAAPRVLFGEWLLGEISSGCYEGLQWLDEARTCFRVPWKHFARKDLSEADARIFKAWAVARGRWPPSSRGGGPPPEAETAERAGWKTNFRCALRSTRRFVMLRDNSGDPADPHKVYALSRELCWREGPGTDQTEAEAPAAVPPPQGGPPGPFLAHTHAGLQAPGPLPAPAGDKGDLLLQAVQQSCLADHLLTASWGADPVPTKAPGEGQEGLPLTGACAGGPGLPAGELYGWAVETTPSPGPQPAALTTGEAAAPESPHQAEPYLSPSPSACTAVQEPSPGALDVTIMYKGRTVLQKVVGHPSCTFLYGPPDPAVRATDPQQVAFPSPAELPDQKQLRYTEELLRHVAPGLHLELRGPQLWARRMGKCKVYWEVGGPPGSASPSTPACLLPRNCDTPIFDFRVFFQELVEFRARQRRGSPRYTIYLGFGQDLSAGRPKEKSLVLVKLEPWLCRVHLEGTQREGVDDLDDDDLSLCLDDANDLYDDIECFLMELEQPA
Oligonucleotide | fitted relative affinity [z-score]
CTTTTTTTCTTTTATTAGTGGTGCTAG | 3.36
GACGGTATCGACAATCGGGACGTGCTA | 0.0261
TTAGATATCGGCTTTCGATTAGTGCTA | 2.78
GAAGGTATCGGTCTCGGGACGTGCTAG | 0.307
GACGATCTCAGTATCGGGACGTGCTAG | 0.0586
TCATTTTGTGTTTTCATACTGTGCTAG | 3.84
GACGACATCGGGTATCGAGACGTGCTA | -0.142
TTAGATATCGGGACTGGCTTAGTGCTA | -0.496
TTAGATTTCAGTTCCGATGAGTGCTAG | 1.41
TATTGTGCAATTAGAGCCCTGTGCTAG | -0.113
TTAGGTATCGACACTCGGTTAGTGCTA | 0.502
TCATTTCTCAACCTCCAACTGTGCTAG | 2.36
GACCGTATCGGTCTCGGGACGTGCTAG | 0.306
TTAGATATCGGGTTTCGATAAGTGCTA | 1.03

Single results of other studies
Molecule | target | assay | system | setting | how to read | endpoint | value
PhoQ, residues 284 288 289 292 302 303 TSTLRA | PhoP, residues 12 14 15 18 19 AQALL (Escherichia coli, UniProt P23836) | Sort-seq, refers to: YFP reporter | E. coli | PhoQ-PhoP variant library, added: 10 µM Mg2+ | relative to: high Mg2+ state, higher = stronger signaling | fold induction | 3.06

Excerpt of the above (single results of other studies):
Molecule | target | assay | system | setting | how to read | endpoint | value
PhoQ, residues 284 288 289 292 302 303 TSTLRA | PhoP, residues 12 14 15 18 19 AQALL (Escherichia coli, UniProt P23836) | Sort-seq, refers to: YFP reporter | E. coli | PhoQ-PhoP variant library, added: 10 µM Mg2+ | relative to: high Mg2+ state, higher = stronger signaling | fold induction | 3.06
